Measurements from different studies.
Protocols differ between the studies behind these lines. Several values in a cell are separate wells, animals, samples, runs or records. ± gives the spread as reported.
Sequence of UniProt Q9UNQ0 (whole entry, looked up): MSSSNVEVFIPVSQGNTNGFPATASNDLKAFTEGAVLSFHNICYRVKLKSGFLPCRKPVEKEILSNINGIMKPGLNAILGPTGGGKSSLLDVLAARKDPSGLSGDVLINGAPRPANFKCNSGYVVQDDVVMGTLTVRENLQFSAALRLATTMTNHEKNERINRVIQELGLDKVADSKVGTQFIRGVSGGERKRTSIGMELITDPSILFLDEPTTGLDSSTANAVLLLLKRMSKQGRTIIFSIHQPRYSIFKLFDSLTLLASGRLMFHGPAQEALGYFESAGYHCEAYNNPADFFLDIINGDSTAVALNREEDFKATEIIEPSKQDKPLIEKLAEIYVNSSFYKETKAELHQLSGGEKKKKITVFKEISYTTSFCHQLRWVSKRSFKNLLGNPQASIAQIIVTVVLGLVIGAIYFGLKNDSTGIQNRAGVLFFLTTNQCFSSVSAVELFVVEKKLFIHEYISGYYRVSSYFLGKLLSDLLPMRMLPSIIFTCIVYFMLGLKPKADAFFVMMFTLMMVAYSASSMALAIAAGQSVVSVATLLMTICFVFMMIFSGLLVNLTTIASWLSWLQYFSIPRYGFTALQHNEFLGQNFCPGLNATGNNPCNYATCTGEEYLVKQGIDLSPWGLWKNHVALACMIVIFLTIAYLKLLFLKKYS

Cc1ccc(OC2CN(C)C2)cc1C(=O)N[C@H](C)c1cc(-c2cnn(C)c2)nc2ccccc12 — viability (Vero E6; 250 µM): 0.165% and 0.33% and 0%
CC(=O)c1cccc(-c2nc(Nc3ccccc3)nc(N3CCOCC3)n2)c1 — inhibition (Cytochrome P450 3A4 (CYP3A4, Homo sapiens, UniProt P08684); 10 µM): < 10%
O=C(O)c1cn2c(c(O)c1=O)C(=O)N(Cc1ccc(F)cc1F)C[C@@H]2C(c1ccccc1)c1ccccc1 — CC50 (bovine cells): > 10 µM
Nc1nc(Nc2ccc(Cl)cc2)nn1S(=O)(=O)c1ccc2ccccc2c1 — CC50 (Syrian hamster cells): 7 µM
Cc1ccc(OCC2CN(C)C2)cc1C(=O)N[C@H](C)c1cc(-c2cnn(C)c2)nc2ccccc12 — viability (Vero E6; 500 µM): 0.893% and 1.07%
CC(=O)NCCCC[C@@H]1NC(=O)[C@H](Cc2c[nH]c3c(C)cccc23)NC(=O)[C@H]([C@@H](C)O)NC(=O)[C@H](CC(N)=O)NC(=O)[C@@H](NC(C)=O)C(C)(C)SSC(C)(C)[C@@H](C(=O)N[C@@H](Cc2ccc(OCCN)cc2)C(=O)N[C@@H](Cc2ccc3ccccc3c2)C(=O)NC2(C(=O)N[C@@H](CCC(=O)O)C(=O)N[C@@H](CC(N)=O)C(=O)N[C@@H](Cc3cccnc3)C(=O)N(C)CC(N)=O)CCOCC2)NC1=O — efflux ratio (ABCG2 (Homo sapiens, UniProt Q9UNQ0); transport, inhibitor; LLC-PK1 expressing ABCG2; 0.637 µM, 90 min, with: [3H]prazosin): 9.82
Cc1ccc(N(C)CCN2CCOCC2)cc1C(=O)N[C@H](C)c1cc(-c2cnn(C)c2)nc2ccccc12 — viability (Vero E6; 250 µM): 55% and 36.7% and 32.9%
Cc1nc2cccc(OCC(C)(C)C(=O)NC(C)C)c2c(N)c1C(=O)[O-].[Na+] — revertant colonies (Salmonella typhimurium; Ames preincubation; TA98; 0.32 mg/plate, with: with rat liver S9): 45 ± 7 colonies/plate
COc1ccc2c3c1O[C@H]1[C@@H](O)CC[C@H]4[C@@H](C2)N(CCc2ccccc2)CC[C@@]341 — logD (octanol/phosphate buffer; 1 h, pH 6.89, ionic strength 0.15 M): 1.7
CCn1cc(-c2cc([C@@H](C)NC(=O)c3cc(OCCN(C)C)ccc3C)c3ccccc3n2)c(C(F)(F)F)n1 — viability (Vero E6; 7.812 µM): 111% and 105%
O=C1NC2(CC2)COc2ncc(F)cc2[C@H]2COCCN2c2ccn3ncc1c3n2 — serum LDH activity (Sprague-Dawley rat, female, serum; oral, 2.5 mg/kg/day, end of recovery, 4-week subacute toxicity): 560 ± 101 U/L
COc1cc2c(cc1NC(=O)c1cncn1C)C[C@H]1[C@H]3CCCC[C@@]23CCN1C — plasma concentration (C57BL/6 mice, plasma; oral, 50 µg/g, 120 min): 6980 ng/mL and 5750 ng/mL and 7060 ng/mL and 4630 ng/mL
